Results pooled from the literature.
Numbered parts are unrelated; each lists some results of a single study. Values joined by “and” are separate records of one study, mostly repeats; a detail may differ. Positions count from the first letter of the parent shown.
Chain of UniProt Q9Y243 (whole entry, looked up): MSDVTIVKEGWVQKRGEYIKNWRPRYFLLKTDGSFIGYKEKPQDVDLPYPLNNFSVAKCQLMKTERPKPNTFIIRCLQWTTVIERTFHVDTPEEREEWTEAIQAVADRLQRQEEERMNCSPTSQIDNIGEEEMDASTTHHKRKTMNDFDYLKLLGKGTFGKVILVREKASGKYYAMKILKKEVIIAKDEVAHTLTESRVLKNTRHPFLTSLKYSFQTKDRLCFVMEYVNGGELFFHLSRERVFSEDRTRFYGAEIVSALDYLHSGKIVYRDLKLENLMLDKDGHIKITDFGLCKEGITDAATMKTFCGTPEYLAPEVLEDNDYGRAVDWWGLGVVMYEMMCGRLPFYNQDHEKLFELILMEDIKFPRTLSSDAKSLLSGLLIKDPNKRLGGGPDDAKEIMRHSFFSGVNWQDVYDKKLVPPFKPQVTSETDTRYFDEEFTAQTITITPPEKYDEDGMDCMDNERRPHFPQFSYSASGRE
Chain of UniProt P31751 (whole entry, looked up): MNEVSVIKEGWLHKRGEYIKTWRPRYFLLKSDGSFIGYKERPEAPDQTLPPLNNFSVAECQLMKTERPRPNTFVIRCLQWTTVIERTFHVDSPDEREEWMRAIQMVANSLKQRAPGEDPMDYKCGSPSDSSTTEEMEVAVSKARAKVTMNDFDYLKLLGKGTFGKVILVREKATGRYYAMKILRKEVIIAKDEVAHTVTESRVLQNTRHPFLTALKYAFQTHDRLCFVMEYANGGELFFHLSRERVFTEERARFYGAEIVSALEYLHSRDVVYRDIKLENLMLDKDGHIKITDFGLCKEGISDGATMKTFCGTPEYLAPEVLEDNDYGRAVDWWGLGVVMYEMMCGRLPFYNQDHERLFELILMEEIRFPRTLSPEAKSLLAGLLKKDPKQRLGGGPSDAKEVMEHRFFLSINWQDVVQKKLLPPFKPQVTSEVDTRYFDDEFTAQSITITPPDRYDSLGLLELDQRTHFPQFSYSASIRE
Chain of UniProt P25098 (whole entry, looked up): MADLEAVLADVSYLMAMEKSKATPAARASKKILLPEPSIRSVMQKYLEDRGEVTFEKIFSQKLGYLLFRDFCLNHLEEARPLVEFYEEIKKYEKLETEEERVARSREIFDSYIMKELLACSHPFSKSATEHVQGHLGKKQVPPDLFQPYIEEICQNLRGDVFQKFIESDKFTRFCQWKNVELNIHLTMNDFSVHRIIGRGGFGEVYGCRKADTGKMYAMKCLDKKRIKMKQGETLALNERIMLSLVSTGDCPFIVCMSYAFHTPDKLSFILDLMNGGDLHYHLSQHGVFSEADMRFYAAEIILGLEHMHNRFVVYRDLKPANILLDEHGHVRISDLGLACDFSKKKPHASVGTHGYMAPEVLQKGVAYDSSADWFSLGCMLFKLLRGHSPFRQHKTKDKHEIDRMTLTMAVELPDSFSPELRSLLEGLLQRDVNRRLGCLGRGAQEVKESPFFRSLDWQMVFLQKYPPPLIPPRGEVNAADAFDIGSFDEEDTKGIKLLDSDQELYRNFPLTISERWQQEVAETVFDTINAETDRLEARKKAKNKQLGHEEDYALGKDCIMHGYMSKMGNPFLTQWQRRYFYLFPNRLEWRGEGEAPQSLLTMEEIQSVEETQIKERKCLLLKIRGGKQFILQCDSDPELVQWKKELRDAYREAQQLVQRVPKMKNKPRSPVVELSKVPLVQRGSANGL
Chain of UniProt P31749 (whole entry, looked up): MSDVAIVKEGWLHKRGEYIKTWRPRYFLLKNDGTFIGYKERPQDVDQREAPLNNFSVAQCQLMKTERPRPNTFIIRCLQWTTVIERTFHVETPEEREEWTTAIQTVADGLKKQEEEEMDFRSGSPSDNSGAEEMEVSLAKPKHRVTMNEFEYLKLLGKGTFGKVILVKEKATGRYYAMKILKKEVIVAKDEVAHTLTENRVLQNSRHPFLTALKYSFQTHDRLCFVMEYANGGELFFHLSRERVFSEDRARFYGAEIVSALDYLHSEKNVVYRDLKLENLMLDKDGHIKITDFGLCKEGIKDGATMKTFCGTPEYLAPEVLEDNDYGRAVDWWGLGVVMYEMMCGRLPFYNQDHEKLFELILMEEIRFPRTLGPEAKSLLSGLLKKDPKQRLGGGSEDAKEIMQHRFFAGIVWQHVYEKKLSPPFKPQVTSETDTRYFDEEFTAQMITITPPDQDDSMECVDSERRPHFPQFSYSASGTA

Set 1
Target: CCNA1, cyclin fold, Cln2 fusion (human)
Technique: yeast growth competition, sequencing
Medium: yeast
Setting: weak parent motif
Relative to: not given
Reading: higher = stronger binding
Quantity: normalised enrichment score
Starting sequence: viral docking peptide; KGVKRKLFAEDSS
KGVKRKGFAEDSS [L7G]: 0.245
KGVKRKLRAEDSS [F8R]: 0.195
KGVKRKLEAEDSS [F8E]: 0.402
KGVKRKLFYEDSS [A9Y]: 1.32
KGVKRKLFAEWSS [D11W]: 0.31
KVVKRKLFAEDSS [G2V]: 1.48
KGVVRKLFAEDSS [K4V]: 0.216
KGGKRKLFAEDSS [V3G]: 0.191

Set 2
Target: HLA class I histocompatibility antigen, C alpha chain, allele C*04:01 (Homo sapiens, UniProt P10321)
Read-out: peptide-MHC binding
Form: peptide
Tested at: concentration not given
Quantity: binding
QYDPVAALF: active
YYTEDQGQF: inactive
RTWFYRTEF: inactive
RLYELIGSV: inactive
RWRWFRAAM: inactive
AELGAFFSI: inactive
RPMLARLTV: inactive
TSASFTDLY: inactive

Set 3
SMILES: C=CC(=O)Nc1ccc2[nH]c(=O)n(C3CCN(Cc4ccc(-c5ccc6c(c5)NC(=O)CO6)cc4)CC3)c2c1
Quantity: EC50
AKT2 (Homo sapiens, UniProt P31751); target engagement in cells, BRET: 4.8 µM
AKT3 (Homo sapiens, UniProt Q9Y243); target engagement, NanoBRET; live cells: 10.1 µM and 7.7 µM
AKT1 (Homo sapiens, UniProt P31749); target engagement in cells, BRET: 3.5 µM

Other studies, line by line
O=C1NC(=O)c2c1c1c3ccccc3n3c1c1c2c2ccccc2n1[C@H]1CC[C@@H]3O1
remaining activity (GRK2 (Homo sapiens, UniProt P25098); enzyme activity, inhibitor; 0.5 µM; relative to: control): 97.9%

C[C@]12CC[C@H](O)C[C@H]1CC[C@@H]1[C@@H]2CC[C@]2(C)[C@@H](C3=CC(=O)OC3)CC[C@]12O
nuclear SOX9 intensity (mouse MPNST tumor cells; high-content immunofluorescence imaging, item: nuclear SOX9; 10 µM, 12 h, mean of 2 replicates; relative to: DMSO control, higher = more nuclear SOX9): 98.6 % of DMSO

CC[C@@H](C)c1nc2cc(Nc3ccnc4ccc(S(=O)(=O)C(C)C)cc34)ccc2s1.Cl
survival (L929 RIPK3-/- reexpressing RIPK3 K51A; CCK-8; 6.25 µM, with: zVAD): 100% and 105% and 84% and 110%

Some of these lines once more (set 2):
RLYELIGSV: inactive
RWRWFRAAM: inactive
